# Measured values of several laboratories.
# Compare with care: the assays were run in different laboratories. Values joined by “and” are separate records of one study, mostly repeats; a detail may differ. Numbers after ± are the reported error.
# Chain of UniProt P15735 (whole entry, looked up): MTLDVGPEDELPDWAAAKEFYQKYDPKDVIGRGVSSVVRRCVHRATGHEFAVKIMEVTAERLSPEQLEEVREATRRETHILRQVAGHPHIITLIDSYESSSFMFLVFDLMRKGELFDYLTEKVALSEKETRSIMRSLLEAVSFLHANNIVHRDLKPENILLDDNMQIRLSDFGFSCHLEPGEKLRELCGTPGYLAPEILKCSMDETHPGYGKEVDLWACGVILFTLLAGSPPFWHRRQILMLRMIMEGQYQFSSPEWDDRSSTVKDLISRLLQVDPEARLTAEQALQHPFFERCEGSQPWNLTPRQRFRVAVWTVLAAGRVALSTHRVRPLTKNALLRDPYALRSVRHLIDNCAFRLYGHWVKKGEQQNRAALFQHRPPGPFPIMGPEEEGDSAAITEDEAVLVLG
# Chain of UniProt Q8NFJ6 (whole entry, looked up): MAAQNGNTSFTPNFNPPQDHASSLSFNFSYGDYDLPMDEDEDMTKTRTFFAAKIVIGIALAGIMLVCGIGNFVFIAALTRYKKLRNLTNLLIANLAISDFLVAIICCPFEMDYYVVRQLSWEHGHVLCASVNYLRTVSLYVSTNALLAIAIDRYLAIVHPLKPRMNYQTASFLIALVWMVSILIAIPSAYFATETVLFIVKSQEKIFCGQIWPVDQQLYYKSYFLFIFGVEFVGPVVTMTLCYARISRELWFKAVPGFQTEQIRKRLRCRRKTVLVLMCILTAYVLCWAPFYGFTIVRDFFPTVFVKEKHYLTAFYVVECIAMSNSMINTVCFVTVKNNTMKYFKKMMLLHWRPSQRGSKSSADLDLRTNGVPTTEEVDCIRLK
# Chain of UniProt Q8TDS7 (whole entry, looked up): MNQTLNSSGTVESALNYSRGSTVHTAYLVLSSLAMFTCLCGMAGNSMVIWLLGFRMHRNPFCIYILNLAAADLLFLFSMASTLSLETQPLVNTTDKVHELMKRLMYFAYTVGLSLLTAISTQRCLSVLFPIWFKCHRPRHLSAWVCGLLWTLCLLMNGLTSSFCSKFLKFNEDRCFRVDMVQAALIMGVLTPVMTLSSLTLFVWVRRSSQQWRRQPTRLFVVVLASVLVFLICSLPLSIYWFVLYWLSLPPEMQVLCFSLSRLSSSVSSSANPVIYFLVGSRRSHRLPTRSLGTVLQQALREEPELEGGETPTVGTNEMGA
# Chain of UniProt P14868 (whole entry, looked up): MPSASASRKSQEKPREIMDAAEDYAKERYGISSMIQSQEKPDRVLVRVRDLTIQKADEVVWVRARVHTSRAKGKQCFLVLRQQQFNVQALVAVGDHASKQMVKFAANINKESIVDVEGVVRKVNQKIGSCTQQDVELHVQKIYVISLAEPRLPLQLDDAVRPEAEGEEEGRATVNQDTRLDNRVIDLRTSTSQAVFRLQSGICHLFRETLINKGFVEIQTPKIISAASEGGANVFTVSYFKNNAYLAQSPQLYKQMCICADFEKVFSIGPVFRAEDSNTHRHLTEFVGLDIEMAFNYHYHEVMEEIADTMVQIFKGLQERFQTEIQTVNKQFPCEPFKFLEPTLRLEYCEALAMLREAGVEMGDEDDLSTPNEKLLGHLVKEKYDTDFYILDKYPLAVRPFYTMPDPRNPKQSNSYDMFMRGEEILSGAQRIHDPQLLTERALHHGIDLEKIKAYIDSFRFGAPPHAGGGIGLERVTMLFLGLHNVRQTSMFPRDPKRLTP
# Chain of UniProt P31391 (whole entry, looked up): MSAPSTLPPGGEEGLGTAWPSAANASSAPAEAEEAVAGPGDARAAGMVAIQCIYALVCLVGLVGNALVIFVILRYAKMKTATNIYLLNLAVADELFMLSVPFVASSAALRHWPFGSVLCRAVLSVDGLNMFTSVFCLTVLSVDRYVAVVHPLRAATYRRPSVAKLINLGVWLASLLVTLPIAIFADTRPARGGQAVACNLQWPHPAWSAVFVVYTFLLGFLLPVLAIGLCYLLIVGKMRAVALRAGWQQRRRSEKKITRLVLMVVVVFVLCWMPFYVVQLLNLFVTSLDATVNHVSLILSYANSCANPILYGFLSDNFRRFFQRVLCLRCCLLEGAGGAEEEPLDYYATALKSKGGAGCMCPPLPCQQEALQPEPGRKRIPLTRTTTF
Compound,target or system,test,test system,conditions,how to read,measurement,result
C=CC(=O)N1CC[C@H](n2nc(C#Cc3cc(OC)cc(OC)c3)c3c(N)ncnc32)C1,,,human patients,"oral, dose not given, QD regimen, adverse drug reaction, added: any phosphate binder",,"decreased appetite, grade ≥3",5%
C[C@@H](O)[C@@H](CO)NC(=O)[C@@H](CCCNC(=N)N)NC(=O)[C@@H]1CCCN1C(=O)[C@@H]1CSSC[C@H](NC(=O)[C@H](Cc2ccccc2)NC(=O)CN2CCN(CC(=O)O)CCN(CC(=O)O)CCN(CC(=O)O)CC2)C(=O)N[C@@H](Cc2ccc(O)cc2)C(=O)N[C@@H](Cc2ccccc2)C(=O)N[C@@H](CCC(N)=O)C(=O)N[C@@H](CC(N)=O)C(=O)N1 [gallium-68 labelled],,,"Wistar rat, healthy, urinary bladder","intravenous, 8 MBq, 120 min",,tissue uptake,0.06 %ID/g
O=C(Nc1ccccc1)C1CCN(C(=O)Oc2cccnc2)CC1,,,healthy women,"oral, 60 mg, 7 days",,adverse event Pruritus,0%
O=S(=O)(Nc1ccccc1)c1ccc(NC(=S)Nc2ccccc2)cc1,,refers to: ALT,"male mouse, blood","oral, 20 mg/kg daily, 14 days",,serum enzyme activity,50.2 U/L
CN1CC[C@@H](c2c(O)cc(O)c3c(=O)cc(-c4ccc(C(F)(F)F)cc4Cl)oc23)[C@@H]1CO,,refers to: Hypotension,AML,"oral, 100 mg, intermittent dosing",,patients with adverse event,0%
CC(=O)c1c(C)c2cnc(Nc3ccc(C4CCN(CCS(C)(=O)=O)CC4)cn3)nc2n(C2CCCC2)c1=O,,,"human, dose-escalation trial, plasma","oral, 75 mg twice daily, day 1, single dose",,AUC(0-t),1340 ng·h/mL
Clc1ccc(C(c2ccccc2Cl)C(Cl)Cl)cc1 (stereo not drawn),,,"human, plasma","concentration not given, 10 days",,trough plasma concentration,4000 ng/mL
C=CCNc1c(O)cc2c(O)c1C[C@@H](C)C[C@H](OC)[C@H](O)[C@@H](C)/C=C(\C)[C@H](OC(N)=O)[C@@H](OC)/C=C\C=C(/C)C(=O)N2,,,"unresectable or metastatic STS, GIST, other","intravenous, 400 mg/m^2",,patients with infusion site pain,19%
C[C@H]1CN(C(=O)CC#N)[C@]12CCN(c1ncnc3[nH]ccc13)C2,,,"dog, female","oral, 3 mg/kg repeated, 3 months",,AUC at NOAEL,11500 ng·h/mL
Clc1ccc(-c2ccccc2)cc1,,,"rat Sprague-Dawley female, serum","inhalation, 35 µg/rat, 24 h",,serum Glucose,264 ± 12 mg/dL
CC1(C)C(=O)N(c2ccc(C#N)c(C(F)(F)F)c2)C(=S)N1c1ccc(C(N)=O)c(F)c1,,population PK base model,human,,,intercompartmental clearance,9.94 L/h
CCCC[C@H]1C(=O)N(C)[C@@H](CCCC)C(=O)N[C@@H](CCCCNC(=O)CN2CCN(CC(=O)O)CCN(CC(=O)O)CC2)C(=O)N[C@H](C(=O)NCC(N)=O)CSCC(=O)N[C@@H](Cc2ccc(O)cc2)C(=O)N(C)[C@@H](C)C(=O)N[C@@H](CC(N)=O)C(=O)N2CCC[C@H]2C(=O)N[C@@H](Cc2c[nH]cn2)C(=O)N[C@@H](CCC(=O)O)C(=O)N2C[C@H](O)C[C@H]2C(=O)N[C@@H](Cc2c[nH]c3ccccc23)C(=O)N[C@@H](CO)C(=O)N[C@@H](Cc2cn(CC(=O)O)c3ccccc23)C(=O)N1C [gallium-68 labelled],,radio-HPLC,PBS and FBS,up to 2 h,,intact fraction,≥ 99%
Cc1cc2c(c(O)c1O)C(=O)c1c(O)cc(O)cc1C2=O,HepaRG co-cultured with HK-2,MTT,,"66.67 µM, 24 h",reference: untreated control,cell viability,54.2 ± 6.54%
CCc1ccc(CC/C=C/c2ccc3c(c2)C(=O)CC3)cc1,,,"Sprague-Dawley rat, female, blood","oral, 120 mg/kg/day, 14 days",,MCH,19.4 pg
C[C@]1(O)C[C@@](N)(c2ccc(-c3nc4n(c3-c3ccccc3)COc3ccncc3-4)cc2)C1,,,"human, advanced or metastatic solid tumours","dose not given, once-daily dose escalation total",,patients with AST increased TEAE,22.2%
Oc1ccc2c3c1O[C@H]1[C@@H](O)CC[C@@]4(O)[C@@H](C2)N(CC2CCC2)CC[C@]314,"MRGPRD (Homo sapiens, UniProt Q8TDS7)","β-arrestin recruitment, TANGO luminescence",,concentration not given,reference: basal luminescence,log2 fold change,-0.00318
O=C(O)CCCOc1ccc(F)cc1-c1cc(-c2ccccc2C(F)(F)F)n(-c2ccccc2)n1,,refers to: adrenals,"Crl:CD(SD) rats, female","iv, 25 µg/kg, 1 day",,organ weight,64.1 ± 8.2 mg
COc1cc2c(cc1OC)CN(CCc1ccc(NC(=O)c3cccc4c(=O)c5cccc(OC)c5[nH]c34)cc1)CC2,,,"CD-1 mouse, male, plasma","intraperitoneal, 3 mg/kg",,half-life,7.12 h
COc1ncccc1-c1cnn2ccc(N3CCN(C(=O)OC(C)C)CC3)nc12,,,"rat, STZ model, plasma","oral, 3 mg/kg, 240 min",,free drug concentration,8.3 nM
CN1CCN(c2cc(-c3ccncc3)c(-c3ccc4ccccc4c3)nn2)CC1,"PROKR2 (Homo sapiens, UniProt Q8NFJ6)","agonist, FLIPR",,12.5 µM,,activation,1.1%
Cc1ccc2cc(N3CCC4(O)C(=O)c5cc(C)c(C)cc5N=C34)ccc2n1 (stereo not drawn),,,rat,"intravenous, 15 mg/kg, GLP safety pharmacology",reference: vehicle,respiratory rate increase,19.6 breaths/min
CN(C(=O)n1cnc(-c2ccc[n+]([O-])c2)c1)C1CCCCC1,,,"Wistar rat, hippocampus","oral, 10 mg/kg/day, 24 h, repeated 5 days",,concentration,9.4 ± 0.8 ng/g
CN1CCN(S(=O)(=O)c2cc([N+](=O)[O-])ccc2N(CCOS(C)(=O)=O)CCOS(C)(=O)=O)CC1,,,"NOD/SCID mouse, naive, blood","intraperitoneal, 12.5 mg/kg, week 2",,hemoglobin,138 g/L and 150 g/L and 102 g/L and 154 g/L
C[C@H]1CN(c2n[nH]c3nc(N[C@H]4CC[C@H](NS(=O)(=O)CCC(F)(F)F)CC4)ncc23)CCO1,"DARS1 (Homo sapiens, UniProt P14868)","Kinobeads competition, refers to: DARS",,"0.8 µM, unit not given",reference: vehicle,remaining binding,1.21
COc1ccc(-c2c(-c3ccc(C#N)c(F)c3)nc(N3CCC(N)CC3)n(C)c2=O)cc1F,,refers to: Anemia,human patients,"oral, dose not given, grade 3 to 4, dose escalation, NG",,treatment-related adverse event incidence,0%
COc1ccc(N2C(=O)N(c3c(C)cccc3Cl)Cc3cnc(Nc4ccc(C5CCN(C)CC5)cc4OC)nc32)nc1,"PHKG2 (Homo sapiens, UniProt P15735)","kinase activity, inhibitor",,"0.5 µM, kinase PHK-GAMMA2",,inhibition,7.38%
CC[C@H](C)[C@@H]1NC(=O)[C@H](Cc2ccc(O)cc2)NC(=O)[C@H](CC(=O)O)NC(=O)CCc2cccc3c2Oc2c(cccc2-3)CCNC(=O)[C@H](CC(=O)O)NC(=O)[C@H](CC(=O)O)NC(=O)[C@H](CCCCN)NC1=O,,,mouse,4 h,,metabolised,> 50%
Cc1ncnc2c1ccn2[C@@H]1C[C@H](Oc2cc(C(F)F)c(F)c3c2CNCC3)[C@@H](O)[C@H]1O,,,patients,"dose not given, any grade",reference: patients,Vomiting incidence,6%
CN1CCN(C2=Nc3ccccc3Nc3ccccc32)CC1,,,male C57BL/6 mice,"intraperitoneal, 10 mg/kg, 30 min",,brain to plasma ratio,10.4
CCN1CCN(Cc2ccc(Nc3ncc(F)c(-c4cc(F)c5nc6n(c5c4)[C@H](C)CCC6)n3)nc2)CC1,,,advanced solid tumour patients,"dose not given, Phase Ia monotherapy",,"Hematuria incidence, grade ≥3",0%
CC(C)(C)c1cc(-n2nc3ccccc3n2)c(O)c(C(C)(C)C)c1,,,human aged 16-21 years,"concentration not given, sunscreen, 95th percentile",,daily dermal exposure dose,4.35 ng/kg/day
Cc1cn([C@H]2O[C@@H](CO[P@@](=O)(N[C@@H](C)C(=O)OC(C)C)Oc3ccccc3)[C@H](O)[C@H]2F)c(=O)[nH]c1=O,,refers to: external ear pain,human,50 mg,,patients with TEAE,17%
CC1(C)CN(CCCCC(=O)N[C@H](Cc2ccc(O)c(I)c2)C(=O)N[C@H](Cc2ccccc2)C(=O)N[C@H](CCCCNC(=O)CCCCCCC(=O)NCCCC[C@H](NC(=O)N[C@@H](CCC(=O)O)C(=O)O)C(=O)O)C(=O)O)CC[N]2CC(C)(C)[S][Tc]2(=[O])[S]1 (stereo partly drawn) [technetium-99m labelled],,radio-HPLC,saline,"20 h, 25 °C",,intact fraction,17%
C[C@@H](NC(=O)N1C(=O)[C@H](Cc2ccnc(N)c2)[C@H]1C(=O)O)C1CCCCC1,,,healthy adult Chinese volunteers,"continuous intravenous infusion, 1.0 mg/kg/h, 5-day infusion, CTCAE 5.0 grading",,incidence of moderate AEs,0%
Oc1ccc(CCc2cc(O)cc(O)c2)cc1,,,"human, both sexes, plasma",mean,,plasma concentration,1190 nM
O=C1c2ccccc2C(=O)c2ccccc21,HepaRG co-cultured with HK-2,MTT,,"33.33 µM, 48 h",reference: untreated control,cell viability,79.7 ± 11.8%
NCCCC[C@@H]1NC(=O)[C@@H](Cc2c[nH]c3ccccc23)NC(=O)[C@H](c2ccccc2)NC(=O)[C@@H]2C[C@@H](OC(=O)NCCN)CN2C(=O)[C@H](Cc2ccccc2)NC(=O)[C@H](Cc2ccc(OCc3ccccc3)cc2)NC1=O,,,healthy volunteers,"subcutaneous, 1950 µg twice daily, day 5, 1.50 h",,QTcI change from baseline,10.4 ms
C[C@]1(CO)Cc2ncn(-c3ccc(C#N)c(Cl)c3)c2C(=O)O1,,,"human, Chinese, plasma","3 mg single dose, median",,tmax,1 h
COc1cc2c(Oc3ccc4[nH]c(C)cc4c3F)ccnc2cc1OCC1(N)CC1,,,paediatric recurrent refractory sarcoma,12 mg,,grade 3 Anorexia,0%
COc1cc(Nc2ncc(F)c(Nc3ccc4c(n3)NC(=O)C(C)(C)O4)n2)cc(OC)c1OC,"SSTR4 (Homo sapiens, UniProt P31391)",,,,,IC50,> 10 µM
O.O.O.O.O.O.[Cl-].[Cl-].[Co+2],,,"rat male, urine","oral, 10 mg/kg single, day 2",,urinary cobalt creatinine-corrected,0.097 µg/µmol creatinine
O[C@H]1CCCN[C@@H]1CCCn1cnc2c(Cl)c(Cl)ccc21,,,"healthy humans, plasma","oral, 150 mg, added: nintedanib 150 mg",,AUCtau geometric LS mean,1140 ng·h/mL
C=C(CN(C(=O)c1c(C(F)F)nn(C)c1F)C1CC1)c1ccc(Cl)cc1Cl,,static acute toxicity test,zebrafish (Brachydanio rerio),"0.694 mg a.i./L, 48 h",,mortality,0%
Cc1cccc(Cn2nc(C3CC3)c3c(NC(=O)c4cnc5cc(OCCN6CCN(C)CC6)ccn45)cccc32)n1,,"CTCAE v4.03, refers to: abdominal pain",PD-1/PD-L1 inhibitor-refractory patients,"oral, dose not given, added: pembrolizumab IV every 3 weeks",,all-cause adverse events,21.1%
CC[C@H](C)[C@@H]1NC(=O)[C@@H]2CCCN2C(=O)[C@H](CC(C)C)NC(=O)[C@H](CC(C)C)NC(=O)CNC(=O)[C@@H](NC(=O)[C@@H](NC(=O)[C@H](CC(=O)O)NC(=O)CNC(=O)[C@@H](NC(=O)[C@H](C)NC(=O)CNC(=O)[C@H](CCCCN)NC(=O)[C@H](CC(C)C)NC(=O)[C@H](CC(C)C)NC(=O)[C@H](CCCCN)NC(=O)CNC(=O)[C@@H](NC(=O)[C@@H](N)CC(C)C)C(C)C)C(C)C)C(C)C)CSSC[C@@H](C(=O)O)NC1=O,,"RNA-seq, refers to: Serpina3g mRNA","mouse traumatic brain injury, frontal cortex and hippocampus",dose not given,reference: TBI plus compound vs TBI,log2 fold change,-2.23
CO[C@H]1C[C@@H]2CC[C@@H](C)[C@@](O)(O2)C(=O)C(=O)N2CCCC[C@H]2C(=O)O[C@H]([C@H](C)C[C@@H]2CC[C@@H](OC(=O)NCCOCCOCCOCCOCCOCCOCCOCCOCCC(=O)N3CCc4cc(Cn5nc(-c6ccc7oc(N)nc7c6)c6c(N)ncnc65)ccc4C3)[C@H](OC)C2)C[C@@H](O)[C@H](C)/C=C(\C)[C@@H](O)[C@@H](OC)C(=O)[C@H](C)C[C@H](C)/C=C/C=C/C=C/1C,,,patients with advanced solid tumours,"intravenous, 8 mg weekly, any grade",,diarrhoea incidence,31.3%
C[C@@H]1OC(=O)NN=C1c1ccc(-c2ccc(F)cc2)c(C(F)(F)F)c1,,"phase I trial, refers to: back pain worst grade 1",human patients,10 mg loading then 0.5 mg daily,,patients with adverse event,100%
CC[C@H](C)[C@H](NC(=O)[C@H](Cc1ccccc1)NC(=O)[C@H](CCC(=O)O)NC(=O)[C@H](CCCNC(=N)N)NC(=O)[C@H](C)NC(=O)[C@H](C)NC(=O)[C@H](CCC(N)=O)NC(=O)[C@H](CCC(=O)O)NC(=O)[C@H](CCC(=O)O)NC(=O)[C@H](CC(C)C)NC(=O)[C@H](Cc1ccc(O)cc1)NC(=O)[C@H](CO)NC(=O)[C@H](CO)NC(=O)[C@@H](NC(=O)[C@H](CC(=O)O)NC(=O)[C@H](CO)NC(=O)[C@@H](NC(=O)[C@H](Cc1ccccc1)NC(=O)[C@@H](NC(=O)CNC(=O)[C@H](CCC(=O)O)NC(=O)[C@H](C)NC(=O)CCc1c[nH]cn1)[C@@H](C)O)[C@@H](C)O)C(C)C)C(=O)N[C@@H](C)C(=O)N[C@@H](Cc1c[nH]c2ccccc12)C(=O)N[C@@H](CC(C)C)C(=O)N[C@H](C(=O)N[C@@H](CCCNC(=N)N)C(=O)NCC(=O)N[C@@H](CCCNC(=N)N)C(=O)N[C@@H](CCCCNC(=O)COCCOCCNC(=O)COCCOCCNC(=O)CC[C@H](NC(=O)CCCCCCCCCCCCCCCCC(=O)O)C(=O)O)C(=O)NCC(=O)NCC(=O)N[C@@H](CO)C(=O)N[C@@H](CCCCNc1c(NCCCCCN(O)C(=O)CCC(=O)NCCCCCN(O)C(=O)CCC(=O)NCCCCCN(O)C(C)=O)c(=O)c1=O)C(=O)O)C(C)C [zirconium-89 labelled],,,"rat, lung","iv, 3 nmol/kg, 24 h, ex vivo",,tissue uptake,1.49 %ID/g

# For quick reference, copied from above:
Compound,target or system,test,test system,conditions,how to read,measurement,result
O=C(O)CCCOc1ccc(F)cc1-c1cc(-c2ccccc2C(F)(F)F)n(-c2ccccc2)n1,,refers to: adrenals,"Crl:CD(SD) rats, female","iv, 25 µg/kg, 1 day",,organ weight,64.1 ± 8.2 mg
COc1cc2c(cc1OC)CN(CCc1ccc(NC(=O)c3cccc4c(=O)c5cccc(OC)c5[nH]c34)cc1)CC2,,,"CD-1 mouse, male, plasma","intraperitoneal, 3 mg/kg",,half-life,7.12 h
COc1ncccc1-c1cnn2ccc(N3CCN(C(=O)OC(C)C)CC3)nc12,,,"rat, STZ model, plasma","oral, 3 mg/kg, 240 min",,free drug concentration,8.3 nM
